{"data": "Assay results collected from several papers", "note": "Lines come from different studies, so protocols differ. Values joined by “and” are separate records of one study, mostly repeats; a detail may differ. Numbers after ± are the reported error."}
{"SMILES": "CC(C)C[C@H](NC(=O)CN)C(=O)NCC(=O)N[C@@H](CCCCN)C(=O)N[C@@H](CC(C)C)C(=O)N[C@@H](CC(C)C)C(=O)N[C@@H](Cc1c[nH]cn1)C(=O)N[C@@H](C)C(=O)N[C@@H](C)C(=O)N[C@@H](CCCCN)C(=O)N[C@@H](CCCCN)C(=O)N[C@@H](CC(C)C)C(=O)NCC(=O)N[C@@H](CCCCN)C(=O)N[C@@H](C)C(=O)N[C@@H](Cc1c[nH]c2ccccc12)C(=O)N[C@@H](CC(C)C)C(=O)NCC(=O)N[C@@H](CCC(=O)O)C(=O)N[C@@H](CC(C)C)C(=O)N[C@@H](CC(C)C)C(=O)N[C@@H](C)C(=O)N[C@@H](C)C(=O)O", "target or system": "sheep erythrocytes", "assay": "turbidity", "setting": "pH 7.5", "measurement": "EC50", "result": "55 ± 14 µM"}
{"SMILES": "NC(=O)CI", "target or system": "SW480 expressing Rad51-EGFP", "assay": "Rad51 nuclear foci", "setting": "24 h", "how to read": "reference: 10 µM camptothecin", "measurement": "EC50", "result": "3.8 µM"}
{"SMILES": "COP(=S)(OC)Oc1ccc([N+](=O)[O-])c(C)c1", "target or system": "Caco-2", "assay": "viability, MTT", "setting": "240 h", "measurement": "EC50", "result": "21.3 ± 0.5 µM"}
{"SMILES": "CC[C@H](C)[C@H](NC(=O)[C@H](CCCCN)NC(=O)[C@H](CC(C)C)NC(=O)[C@H](CC(C)C)NC(=O)[C@H](C)NC(=O)CNC(=O)[C@H](CC(C)C)NC(=O)[C@@H](N)Cc1ccccc1)C(=O)NCC(=O)N[C@@H](C)C(=O)N[C@@H](CCCCN)C(=O)N[C@@H](CC(C)C)C(=O)N[C@@H](CC(C)C)C(=O)N1CCC[C@H]1C(=O)N[C@@H](CO)C(=O)N[C@H](C(=O)N[C@H](C(=O)NCC(=O)N[C@@H](CC(C)C)C(=O)N[C@@H](Cc1ccccc1)C(=O)N[C@@H](CCCCN)C(=O)N[C@@H](CCCCN)C(=O)N[C@@H](CCCCN)C(=O)N[C@@H](CCC(N)=O)C(=O)N[C@@H](CCC(N)=O)C(=O)O)C(C)C)C(C)C", "target or system": "F11 cells", "assay": "intracellular calcium, FLIPR", "setting": "0.1% BSA", "measurement": "EC50", "result": "0.9 to 1.5 µM and 0.99 µM"}
{"SMILES": "O=C(NC(=O)c1c(F)cccc1F)Nc1cc(Cl)c(F)c(Cl)c1F", "target or system": "Caco-2", "assay": "viability, MTT", "setting": "240 h", "measurement": "EC50", "result": "429 ± 24.5 µM"}
{"SMILES": "CN[C@H](CC(=O)O)C(=O)O", "target or system": "cerebellar granule cells", "assay": "cell viability increase, MTT", "setting": "16 h, K5 medium", "measurement": "EC50", "result": "106 µM"}
{"SMILES": "CC[C@H](C)[C@H](NC(=O)[C@H](C)NC(=O)[C@H](C)NC(=O)[C@H](CC(N)=O)NC(=O)[C@H](C)NC(=O)[C@H](C)NC(=O)[C@H](C)NC(=O)[C@H](CCCNC(=N)N)NC(=O)[C@H](CC(C)C)NC(=O)[C@@H](NC(=O)[C@H](CCC(=O)O)NC(=O)[C@@H]1CCCN1C(=O)CNC(=O)[C@H](CCCCN)NC(=O)[C@H](CCC(=O)O)NC(=O)[C@H](CCCCN)NC(=O)[C@@H](NC(=O)[C@H](Cc1ccccc1)NC(=O)[C@H](CC(=O)O)NC(=O)[C@H](CCCCN)NC(=O)[C@H](C)NC(=O)[C@H](CCCCN)NC(=O)[C@H](CC(N)=O)NC(=O)[C@H](CC(C)C)NC(=O)[C@H](Cc1c[nH]c2ccccc12)NC(=O)[C@H](CC(=O)O)NC(=O)[C@H](CCCCN)NC(=O)[C@H](Cc1c[nH]c2ccccc12)NC(=O)CN)[C@@H](C)CC)[C@@H](C)CC)C(=O)N[C@@H](CC(N)=O)C(=O)O", "target or system": "HEK293 cells", "assay": "intracellular calcium, FLIPR", "setting": "0.1% BSA", "measurement": "EC50", "result": "57.9 ± 5.87 µM"}
{"SMILES": "CC1(C)[C@H](C(=O)O[C@H](C#N)c2cccc(Oc3ccccc3)c2)[C@@H]1/C=C(\\Cl)C(F)(F)F (racemic)", "target or system": "Caco-2", "assay": "viability, MTT", "setting": "168 h", "measurement": "EC50", "result": "74.3 ± 4.8 µM"}
{"SMILES": "F[P-](F)(F)(F)(F)F.F[P-](F)(F)(F)(F)F.[Ru+2].c1ccc(-c2ccccn2)nc1.c1ccc(-c2ccccn2)nc1.c1csc(-c2ccc(-c3cc4cccnc4c4ncccc34)s2)c1", "target or system": "HL-60", "assay": "cell viability, resazurin", "setting": "16 h drug-to-light interval, with: red light 625 nm, 100 J/cm2", "measurement": "EC50", "result": "13.5 µM and ~14 µM"}
{"SMILES": "CC[C@H](C)[C@H](NC(=O)CN)C(=O)N[C@H](C(=O)N[C@@H](CC(N)=O)C(=O)N[C@H](C(=O)N[C@@H](CC(C)C)C(=O)N[C@@H](CCC(N)=O)C(=O)N[C@@H](CCCCN)C(=O)N[C@@H](Cc1ccc(O)cc1)C(=O)N[C@@H](Cc1ccc(O)cc1)C(=O)N[C@H]1CSSC[C@@H]2NC(=O)[C@H](CCCCN)NC(=O)[C@H](CCCNC(=N)N)NC(=O)CNC(=O)[C@H](CCCNC(=N)N)NC(=O)[C@H]([C@@H](C)O)NC(=O)[C@H](CO)NC(=O)[C@@H]3CSSC[C@H](NC(=O)[C@H](CCCNC(=N)N)NC(=O)CNC(=O)CNC(=O)[C@H](CCCNC(=N)N)NC(=O)[C@H](C(C)C)NC(=O)[C@H](CCCNC(=N)N)NC1=O)C(=O)N[C@@H](C)C(=O)N[C@@H](C(C)C)C(=O)N[C@@H](CC(C)C)C(=O)N[C@@H](CO)C(=O)N[C@@H](CSSC[C@@H](C(=O)N[C@@H](CCCNC(=N)N)C(=O)N[C@@H](CCCNC(=N)N)C(=O)N[C@@H](CCCCN)C(=O)N[C@@H](CCCCN)C(=O)O)NC2=O)C(=O)N[C@@H](CC(C)C)C(=O)N1CCC[C@H]1C(=O)N[C@@H](CCCCN)C(=O)N[C@@H](CCC(=O)O)C(=O)N[C@@H](CCC(=O)O)C(=O)N[C@@H](CCC(N)=O)C(=O)N[C@@H]([C@@H](C)CC)C(=O)NCC(=O)N[C@@H](CCCCN)C(=O)N3)[C@@H](C)O)[C@@H](C)CC", "target or system": "LAD2", "assay": "calcium influx", "measurement": "EC50", "result": "0.74 ± 0.23 µM"}
{"SMILES": "N#Cc1nn(-c2c(Cl)cc(C(F)(F)F)cc2Cl)c(N)c1[S+]([O-])C(F)(F)F (stereo not shown)", "target or system": "Caco-2", "assay": "viability, MTT", "setting": "240 h", "measurement": "EC50", "result": "18.1 µM"}
{"SMILES": "CC[C@H](C)[C@H](NC(=O)[C@H](CCCCN)NC(=O)[C@H](CCCCN)NC(=O)[C@H](C)NC(=O)[C@H](CC(C)C)NC(=O)[C@H](C)NC(=O)[C@H](C)NC(=O)[C@H](CC(C)C)NC(=O)[C@H](C)NC(=O)[C@H](CC(=O)O)NC(=O)[C@H](CC(C)C)NC(=O)[C@H](CC(N)=O)NC(=O)[C@@H](NC(=O)[C@H](CC(=O)O)NC(=O)CNC(=O)[C@H](CC(C)C)NC(=O)[C@H](CC(C)C)NC(=O)[C@H](Cc1c[nH]c2ccccc12)NC(=O)CNC(=O)[C@H](C)N)[C@@H](C)CC)C(=O)N[C@@H](CC(C)C)C(N)=O", "target or system": "sheep erythrocytes", "assay": "turbidity", "setting": "pH 7.5", "measurement": "EC50", "result": "45 ± 0.05 µM"}
{"SMILES": "CC1(C)[C@H](C(=O)O[C@H](C#N)c2cccc(Oc3ccccc3)c2)[C@@H]1C=C(Br)Br", "target or system": "Caco-2", "assay": "viability, MTT", "setting": "168 h", "measurement": "EC50", "result": "136 ± 10.7 µM"}
{"SMILES": "CN[C@@](C)(C[18F])C(=O)O", "test system": "SCID mouse U87 xenograft, brain", "setting": "120 min, post injection", "measurement": "tissue uptake", "result": "0.5 ± 0.1 %ID/g"}
{"SMILES": "CC[C@H](C)[C@H](NC(=O)[C@H](CC(C)C)NC(=O)CNC(=O)[C@@H]1CCCN1C(=O)[C@H](CC(C)C)NC(=O)[C@H](C)NC(=O)[C@H](CCCCN)NC(=O)CNC(=O)[C@H](CC(C)C)NC(=O)[C@H](CCSC)NC(=O)[C@H](CCCCN)NC(=O)[C@H](C)NC(=O)[C@H](C)NC(=O)[C@H](C)NC(=O)CNC(=O)[C@H](Cc1c[nH]c2ccccc12)NC(=O)[C@@H](N)Cc1ccccc1)C(=O)N[C@@H](CO)C(=O)N[C@@H](CCSC)C(=O)N[C@@H](Cc1ccccc1)C(=O)N[C@@H](CCC(N)=O)C(=O)N[C@@H](CCCCN)C(=O)N[C@@H](CC(N)=O)C(=O)O", "target or system": "HEK293 cells", "assay": "intracellular calcium, FLIPR", "setting": "0.1% BSA", "measurement": "EC50", "result": "6.88 ± 1.98 µM"}
{"SMILES": "N.N.[Cl][Pt][Cl]", "target or system": "HAP1 POLH-deficient", "assay": "cell viability", "setting": "with: 1 µM", "measurement": "EC50", "result": "0.07 µM"}
{"SMILES": "CCNC(=O)[C@H]1O[C@@H](n2cnc3c(N)ncnc32)[C@H](O)[C@@H]1O", "target or system": "aortic endothelial cells of db/db mice", "assay": "IL-6 production, activator", "setting": "24 h", "measurement": "EC50", "result": "0.046 µM"}
{"SMILES": "CC[C@H](C)[C@H](NC(=O)CN)C(=O)N[C@@H](CC(C)C)C(=O)N[C@@H](CCCCN)C(=O)N[C@@H](Cc1ccccc1)C(=O)N[C@@H](CC(C)C)C(=O)N[C@@H](CCC(=O)O)C(=O)N[C@@H](CO)C(=O)N[C@@H](C)C(=O)N[C@@H](CCCCN)C(=O)N[C@@H](CCCCN)C(=O)N[C@@H](Cc1c[nH]c2ccccc12)C(=O)N[C@@H](CC(C)C)C(=O)N[C@@H](CCC(=O)O)C(=O)N[C@@H](C)C(=O)N[C@@H](Cc1ccccc1)C(=O)N[C@@H](CC(C)C)C(=O)N[C@@H](C)C(=O)N[C@@H](CCC(=O)O)C(=O)N[C@H](C(=O)N[C@@H](CCSC)C(=O)N[C@@H](CC(N)=O)C(=O)N[C@@H](CO)C(=O)O)[C@@H](C)CC", "target or system": "sheep erythrocytes", "assay": "turbidity", "setting": "pH 7.5", "measurement": "EC50", "result": "67 ± 22 µM"}
{"SMILES": "c1ccc([C@@H]2C[C@H]2NC2CCNCC2)cc1", "target or system": "THP-1", "assay": "cell differentiation, flow cytometry, measured: CD11b", "setting": "96 h", "measurement": "EC50", "result": "0.00062 µM"}
{"note": "A few entries again:"}
{"SMILES": "CC[C@H](C)[C@H](NC(=O)[C@H](C)NC(=O)[C@H](C)NC(=O)[C@H](CC(N)=O)NC(=O)[C@H](C)NC(=O)[C@H](C)NC(=O)[C@H](C)NC(=O)[C@H](CCCNC(=N)N)NC(=O)[C@H](CC(C)C)NC(=O)[C@@H](NC(=O)[C@H](CCC(=O)O)NC(=O)[C@@H]1CCCN1C(=O)CNC(=O)[C@H](CCCCN)NC(=O)[C@H](CCC(=O)O)NC(=O)[C@H](CCCCN)NC(=O)[C@@H](NC(=O)[C@H](Cc1ccccc1)NC(=O)[C@H](CC(=O)O)NC(=O)[C@H](CCCCN)NC(=O)[C@H](C)NC(=O)[C@H](CCCCN)NC(=O)[C@H](CC(N)=O)NC(=O)[C@H](CC(C)C)NC(=O)[C@H](Cc1c[nH]c2ccccc12)NC(=O)[C@H](CC(=O)O)NC(=O)[C@H](CCCCN)NC(=O)[C@H](Cc1c[nH]c2ccccc12)NC(=O)CN)[C@@H](C)CC)[C@@H](C)CC)C(=O)N[C@@H](CC(N)=O)C(=O)O", "target or system": "HEK293 cells", "assay": "intracellular calcium, FLIPR", "setting": "0.1% BSA", "measurement": "EC50", "result": "57.9 ± 5.87 µM"}
{"SMILES": "NC(=O)CI", "target or system": "SW480 expressing Rad51-EGFP", "assay": "Rad51 nuclear foci", "setting": "24 h", "how to read": "reference: 10 µM camptothecin", "measurement": "EC50", "result": "3.8 µM"}
